{"data": "Experimental data pooled from the literature", "note": "Every numbered part comes from another study and shows a few of its results, in no order."}
{"data": "Set 1", "target": "Histone acetyltransferase KAT6A, winged helix 1, GST fusion (KAT6A, Homo sapiens, UniProt Q92794, residues 1-85)", "technique": "protein binding microarray", "form": "double-stranded DNA, one strand shown", "sample": "in vitro", "concentration": "not given", "notes": "8-mer, flanks averaged, mean of 2 arrays, mostly near background", "reference": "not given", "direction": "higher = stronger binding", "Target sequence (chain)": "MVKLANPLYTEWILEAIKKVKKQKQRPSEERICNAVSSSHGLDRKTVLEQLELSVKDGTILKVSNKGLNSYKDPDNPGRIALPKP"}
{"Strand": "AAAGATGC", "E-score": 0.00215}
{"Strand": "CGCGCGCG", "E-score": 0.485}
{"Strand": "ACCCAAGA", "E-score": -0.272}
{"Strand": "AGAGAGAC", "E-score": -0.163}
{"Strand": "CGATTAGC", "E-score": 0.12}
{"Strand": "CACTGAAG", "E-score": 0.00749}
{"Strand": "ACTAGAAT", "E-score": -0.179}
{"Strand": "TATTAAAA", "E-score": 0.00466}
{"Strand": "ACATTGTG", "E-score": -0.198}
{"data": "Set 2", "target": "Prothrombin, mature alpha-thrombin (F2, Homo sapiens, UniProt P00734)", "technique": "aptamer microarray, sandwich", "form": "DNA with 2'F-ANA", "sample": "in vitro", "concentration": "200 nM", "notes": "whole 15-mer aptamer, many near background", "together with": "Cy3 exosite-II aptamer, 400 nM", "direction": "higher = stronger binding", "strand": "GGTTGGTGTGGTTGG"}
{"Modification": "2'F-ANA at 3 5 9 13 14 15", "mean fluorescence intensity [a.u.]": 74.1}
{"Modification": "2'F-ANA at 2 3 4 5 6 8 10 11 12 14 15", "mean fluorescence intensity [a.u.]": 50}
{"Modification": "2'F-ANA at 1 3 5 7 9 13", "mean fluorescence intensity [a.u.]": 58.5}
{"Modification": "2'F-ANA at 2 3 5 6 9 12 14", "mean fluorescence intensity [a.u.]": 51.9}
{"Modification": "2'F-ANA at 1 6 7 8 9 10 11 14 15", "mean fluorescence intensity [a.u.]": 57.3}
{"Modification": "2'F-ANA at 2 4 5 6 9 10 14", "mean fluorescence intensity [a.u.]": 45.5}
{"Modification": "2'F-ANA at 1 3 4 8 9 10 11 12 13 15", "mean fluorescence intensity [a.u.]": 69.9}
{"Modification": "2'F-ANA at 3 11 12 13 14 15", "mean fluorescence intensity [a.u.]": 581}
{"Modification": "2'F-ANA at 4 5 10 12 14 15", "mean fluorescence intensity [a.u.]": 62.1}
{"data": "Set 3", "target": "Sal-like protein 4, full length isoform A (SALL4, Homo sapiens, UniProt Q9UJQ4, residues 1-1053)", "technique": "universal PBM", "form": "double-stranded DNA, one strand shown", "sample": "in vitro", "concentration": "600 nM", "notes": "8-mer, flanks averaged, mean of replicates", "direction": "higher = stronger binding", "sequence of UniProt Q9UJQ4 (whole entry, looked up)": "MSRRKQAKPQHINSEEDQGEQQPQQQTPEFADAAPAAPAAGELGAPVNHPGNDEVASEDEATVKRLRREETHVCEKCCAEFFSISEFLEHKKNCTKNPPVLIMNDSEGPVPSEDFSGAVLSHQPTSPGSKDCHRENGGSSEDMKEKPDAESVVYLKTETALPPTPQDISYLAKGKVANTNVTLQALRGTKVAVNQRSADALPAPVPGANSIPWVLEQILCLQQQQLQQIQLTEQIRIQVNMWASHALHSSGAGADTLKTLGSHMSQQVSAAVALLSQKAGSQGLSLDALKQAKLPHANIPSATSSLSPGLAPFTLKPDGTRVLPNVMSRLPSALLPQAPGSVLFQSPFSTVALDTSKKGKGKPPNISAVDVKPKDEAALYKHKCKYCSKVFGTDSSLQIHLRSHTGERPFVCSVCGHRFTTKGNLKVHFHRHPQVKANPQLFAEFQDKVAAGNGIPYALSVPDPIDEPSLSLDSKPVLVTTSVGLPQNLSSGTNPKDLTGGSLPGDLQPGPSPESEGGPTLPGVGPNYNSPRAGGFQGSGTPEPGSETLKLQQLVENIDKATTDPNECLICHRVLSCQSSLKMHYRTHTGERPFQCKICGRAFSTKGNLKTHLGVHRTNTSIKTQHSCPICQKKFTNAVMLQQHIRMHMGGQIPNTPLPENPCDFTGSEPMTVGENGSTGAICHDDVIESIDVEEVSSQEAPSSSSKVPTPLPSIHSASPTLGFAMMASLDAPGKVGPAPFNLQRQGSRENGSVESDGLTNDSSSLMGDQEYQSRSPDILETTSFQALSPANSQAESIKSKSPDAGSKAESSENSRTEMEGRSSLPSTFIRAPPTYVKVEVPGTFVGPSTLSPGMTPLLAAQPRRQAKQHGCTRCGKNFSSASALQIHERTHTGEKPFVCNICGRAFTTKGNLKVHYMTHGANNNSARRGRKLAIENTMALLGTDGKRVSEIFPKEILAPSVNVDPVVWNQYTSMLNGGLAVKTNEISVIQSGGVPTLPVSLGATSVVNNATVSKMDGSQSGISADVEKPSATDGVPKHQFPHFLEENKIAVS"}
{"Strand": "AGGTTCAG", "E-score": -0.025}
{"Strand": "TGTCGAAA", "E-score": 0.157}
{"Strand": "CCAATTGC", "E-score": -0.0284}
{"Strand": "ACGCGTCA", "E-score": 0.0293}
{"Strand": "ACTCCTGA", "E-score": -0.0674}
{"Strand": "CAATGTGA", "E-score": 0.209}
{"Strand": "CTCAGCGC", "E-score": -0.201}
{"Strand": "ATGTCATC", "E-score": -0.0181}
{"data": "Further values, each from its own experiment"}
{"Molecule": "PhoQ, residues 284 288 289 292 302 303 AGCYAI", "target": "PhoP, residues 12 14 15 18 19 AWHSL (Escherichia coli, UniProt P23836)", "assay": "Sort-seq, measured: YFP reporter", "test system": "E. coli", "conditions": "PhoQ-PhoP variant library, together with: 10 µM Mg2+", "scale": "reference: high Mg2+ state, higher = stronger signaling", "measurement": "fold induction", "result": 2.3}
{"note": "Some of these lines once more (set 1):"}
{"Strand": "CGCGCGCG", "E-score": 0.485}
{"Strand": "ACCCAAGA", "E-score": -0.272}
{"Strand": "AGAGAGAC", "E-score": -0.163}
{"Strand": "CGATTAGC", "E-score": 0.12}
